Results from different studies.
Each numbered part is a random draw from the data of one study; scales do not carry over between parts. Positions count from the first letter of the parent shown.

Set 1 — target: inorganic phosphate, free oxyanion; technique: microfluidic competitive inhibition; medium: in vitro, cell-free expressed; concentration: not given; direction: lower = stronger binding
Notes: derived from inhibition constants, unchanged parent 615000 nM
Parent: PafA, mature enzyme, eGFP fusion (Elizabethkingia meningoseptica, UniProt Q9KJX5); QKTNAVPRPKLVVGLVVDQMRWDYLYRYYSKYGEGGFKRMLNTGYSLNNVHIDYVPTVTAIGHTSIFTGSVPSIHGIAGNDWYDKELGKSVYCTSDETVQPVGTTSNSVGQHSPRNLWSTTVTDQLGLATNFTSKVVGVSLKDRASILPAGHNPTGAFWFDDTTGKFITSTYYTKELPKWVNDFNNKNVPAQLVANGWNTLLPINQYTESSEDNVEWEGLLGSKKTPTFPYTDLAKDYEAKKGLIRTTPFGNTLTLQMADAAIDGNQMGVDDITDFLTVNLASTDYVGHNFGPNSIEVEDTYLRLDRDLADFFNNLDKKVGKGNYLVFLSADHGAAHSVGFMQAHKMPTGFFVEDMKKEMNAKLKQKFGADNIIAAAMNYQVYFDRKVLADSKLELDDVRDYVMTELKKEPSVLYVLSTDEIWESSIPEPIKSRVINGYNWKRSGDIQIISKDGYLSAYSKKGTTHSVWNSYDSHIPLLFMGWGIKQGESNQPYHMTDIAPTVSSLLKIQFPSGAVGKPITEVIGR
Under “phosphate dissociation constant”, `I447V` is recorded as 615 µM.
Under “phosphate dissociation constant”, `A458G` is recorded as 612 µM.
`D308V` — result for “phosphate dissociation constant”: 622 µM.

Set 2 — observed: binding; technique: phage display NGS; form: peptide; relative to: input library
Target: UDP-N-acetylglucosamine--peptide N-acetylglucosaminyltransferase 110 kDa subunit (OGT, Homo sapiens, UniProt O15294)
Construct (O15294 1-1046): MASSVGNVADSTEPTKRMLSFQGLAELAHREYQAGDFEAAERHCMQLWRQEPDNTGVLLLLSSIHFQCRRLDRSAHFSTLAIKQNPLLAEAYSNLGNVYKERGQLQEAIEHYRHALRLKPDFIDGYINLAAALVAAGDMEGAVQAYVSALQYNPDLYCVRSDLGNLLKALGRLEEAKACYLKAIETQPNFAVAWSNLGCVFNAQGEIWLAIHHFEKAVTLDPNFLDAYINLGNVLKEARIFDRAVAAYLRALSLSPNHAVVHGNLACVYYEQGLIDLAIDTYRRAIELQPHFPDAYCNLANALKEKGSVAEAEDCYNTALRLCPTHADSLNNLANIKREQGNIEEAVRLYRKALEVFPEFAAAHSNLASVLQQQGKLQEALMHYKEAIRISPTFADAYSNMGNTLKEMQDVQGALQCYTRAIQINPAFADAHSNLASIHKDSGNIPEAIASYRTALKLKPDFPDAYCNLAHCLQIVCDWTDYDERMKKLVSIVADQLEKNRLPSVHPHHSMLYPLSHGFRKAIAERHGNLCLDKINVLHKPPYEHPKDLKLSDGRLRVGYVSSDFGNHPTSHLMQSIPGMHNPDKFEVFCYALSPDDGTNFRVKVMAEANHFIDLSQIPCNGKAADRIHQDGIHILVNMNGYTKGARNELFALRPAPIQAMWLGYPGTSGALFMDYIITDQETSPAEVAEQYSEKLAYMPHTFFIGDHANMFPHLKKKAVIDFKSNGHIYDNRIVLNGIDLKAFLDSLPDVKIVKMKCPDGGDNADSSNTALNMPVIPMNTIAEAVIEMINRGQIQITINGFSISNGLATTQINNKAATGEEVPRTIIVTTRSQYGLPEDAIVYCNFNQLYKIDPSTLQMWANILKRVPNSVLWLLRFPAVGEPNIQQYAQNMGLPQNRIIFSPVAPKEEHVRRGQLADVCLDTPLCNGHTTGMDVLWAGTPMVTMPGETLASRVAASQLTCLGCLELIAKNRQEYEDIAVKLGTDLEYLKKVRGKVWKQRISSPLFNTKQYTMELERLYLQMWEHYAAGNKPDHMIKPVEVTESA
`THIMTGHHGPIKGRD` — result for “minimum log2 enrichment ratio”: 1.91.
For `HWHPLHQQMPHDMGS`, “minimum log2 enrichment ratio” read 3.7.
`HGHRLRSESHTHVRQ` — result for “minimum log2 enrichment ratio”: 1.25.
`HYTMEHNWAHQEQHH`: “minimum log2 enrichment ratio” 2.62.

Mixed results — CLTC: CLTC (Homo sapiens, UniProt Q00610); CCND1: CCND1, cyclin fold, Cln2 fusion (human)
P1: viral docking peptide; KGVKRKLFAEDSS; partner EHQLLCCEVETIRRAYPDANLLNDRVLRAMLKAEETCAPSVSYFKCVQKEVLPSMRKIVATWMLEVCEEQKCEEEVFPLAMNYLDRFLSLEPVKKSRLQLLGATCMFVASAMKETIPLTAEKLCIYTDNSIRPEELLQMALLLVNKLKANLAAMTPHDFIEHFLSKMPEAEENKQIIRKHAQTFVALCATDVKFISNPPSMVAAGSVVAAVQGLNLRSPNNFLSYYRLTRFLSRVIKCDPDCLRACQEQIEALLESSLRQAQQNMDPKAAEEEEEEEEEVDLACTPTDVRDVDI
For `CLTA (Homo sapiens, UniProt P09496)`, interaction screen read “cross-linked” (CLTC; cross-linking MS; hits only).
For `P1 V3P`, “normalised enrichment score” read 2.66 (CCND1; yeast growth competition, sequencing; yeast; strong parent motif; relative to: not given, higher = stronger binding).
`MDH2 (Homo sapiens, UniProt P40926)` — result for cross-linked residues: “T235 to S1826” (DOCK7 (Homo sapiens, UniProt Q96N67); cross-linking MS; cell fractions; with: DSSO).
`P1 R5W`: “normalised enrichment score” 0.261 (CCND1; yeast growth competition, sequencing; yeast; strong parent motif; relative to: not given, higher = stronger binding).
For `NDUFS6 (Homo sapiens, UniProt O75380)`, cross-linked residues read “E74 to K107” (NDUFA12 (Homo sapiens, UniProt Q9UI09); cross-linking MS; cell fractions; with: DMTMM).
`P1 F8L`: “normalised enrichment score” -0.0764 (CCND1; yeast growth competition, sequencing; yeast; strong parent motif; relative to: not given, higher = stronger binding).
`CLTB (Homo sapiens, UniProt P09497)` — result for interaction screen: “cross-linked” (CLTC; cross-linking MS; hits only).

Some of these lines once more (set 2):
`HGHRLRSESHTHVRQ` — result for “minimum log2 enrichment ratio”: 1.25.
For `HWHPLHQQMPHDMGS`, “minimum log2 enrichment ratio” read 3.7.
